Measurements gathered from unrelated publications.
Each line is one published result; not all experiments were run side by side. ± gives the spread as reported.
Sequence of UniProt Q00534 (whole entry, looked up): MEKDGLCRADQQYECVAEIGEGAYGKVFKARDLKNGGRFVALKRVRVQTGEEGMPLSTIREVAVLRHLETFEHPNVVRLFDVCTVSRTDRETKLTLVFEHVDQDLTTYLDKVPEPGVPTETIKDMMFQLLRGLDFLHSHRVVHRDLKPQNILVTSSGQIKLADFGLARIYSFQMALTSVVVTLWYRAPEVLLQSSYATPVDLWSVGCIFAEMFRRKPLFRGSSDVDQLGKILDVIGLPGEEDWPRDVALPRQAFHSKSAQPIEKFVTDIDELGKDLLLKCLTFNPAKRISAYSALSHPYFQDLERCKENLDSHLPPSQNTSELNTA
Sequence of UniProt P04062 (whole entry, unmodified, looked up): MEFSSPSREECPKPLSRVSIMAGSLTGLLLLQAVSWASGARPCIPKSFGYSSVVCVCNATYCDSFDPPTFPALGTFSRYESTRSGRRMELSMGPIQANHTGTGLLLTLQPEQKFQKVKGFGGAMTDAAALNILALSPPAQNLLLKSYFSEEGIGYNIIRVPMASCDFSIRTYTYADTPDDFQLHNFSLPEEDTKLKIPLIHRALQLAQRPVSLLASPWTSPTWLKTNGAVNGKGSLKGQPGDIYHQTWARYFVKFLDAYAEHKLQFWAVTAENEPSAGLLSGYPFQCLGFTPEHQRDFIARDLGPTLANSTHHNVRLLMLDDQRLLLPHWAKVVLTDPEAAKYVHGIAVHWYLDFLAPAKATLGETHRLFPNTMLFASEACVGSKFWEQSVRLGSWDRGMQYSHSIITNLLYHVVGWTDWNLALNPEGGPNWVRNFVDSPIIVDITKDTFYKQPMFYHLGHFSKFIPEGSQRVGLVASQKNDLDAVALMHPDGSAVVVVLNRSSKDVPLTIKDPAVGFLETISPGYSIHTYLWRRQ
Sequence of UniProt Q7RTT9 (whole entry, looked up): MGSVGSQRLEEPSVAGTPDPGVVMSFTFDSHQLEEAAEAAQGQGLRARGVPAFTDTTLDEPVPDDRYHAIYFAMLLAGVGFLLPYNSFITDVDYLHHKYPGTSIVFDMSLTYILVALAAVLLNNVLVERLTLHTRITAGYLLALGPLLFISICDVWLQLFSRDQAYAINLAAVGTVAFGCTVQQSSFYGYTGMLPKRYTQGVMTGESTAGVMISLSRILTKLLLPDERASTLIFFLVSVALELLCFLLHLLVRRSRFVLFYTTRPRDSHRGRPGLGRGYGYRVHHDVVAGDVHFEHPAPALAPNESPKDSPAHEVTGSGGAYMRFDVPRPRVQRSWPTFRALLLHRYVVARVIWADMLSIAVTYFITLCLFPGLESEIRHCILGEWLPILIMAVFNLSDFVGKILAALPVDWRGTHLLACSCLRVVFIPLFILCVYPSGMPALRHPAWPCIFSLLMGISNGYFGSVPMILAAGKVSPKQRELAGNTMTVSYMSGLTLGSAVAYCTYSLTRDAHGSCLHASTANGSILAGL
Sequence of UniProt Q5XI64 (whole entry, looked up): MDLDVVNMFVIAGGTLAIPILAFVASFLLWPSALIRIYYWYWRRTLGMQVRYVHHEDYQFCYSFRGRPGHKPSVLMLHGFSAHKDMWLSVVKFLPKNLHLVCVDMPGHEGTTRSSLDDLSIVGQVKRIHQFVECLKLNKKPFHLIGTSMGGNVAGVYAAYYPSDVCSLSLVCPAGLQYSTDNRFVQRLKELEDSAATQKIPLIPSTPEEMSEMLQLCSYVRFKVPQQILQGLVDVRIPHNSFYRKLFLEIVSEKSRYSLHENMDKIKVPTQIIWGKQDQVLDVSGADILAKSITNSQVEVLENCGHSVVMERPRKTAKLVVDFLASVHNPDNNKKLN
Sequence of UniProt P10275 (whole entry, looked up): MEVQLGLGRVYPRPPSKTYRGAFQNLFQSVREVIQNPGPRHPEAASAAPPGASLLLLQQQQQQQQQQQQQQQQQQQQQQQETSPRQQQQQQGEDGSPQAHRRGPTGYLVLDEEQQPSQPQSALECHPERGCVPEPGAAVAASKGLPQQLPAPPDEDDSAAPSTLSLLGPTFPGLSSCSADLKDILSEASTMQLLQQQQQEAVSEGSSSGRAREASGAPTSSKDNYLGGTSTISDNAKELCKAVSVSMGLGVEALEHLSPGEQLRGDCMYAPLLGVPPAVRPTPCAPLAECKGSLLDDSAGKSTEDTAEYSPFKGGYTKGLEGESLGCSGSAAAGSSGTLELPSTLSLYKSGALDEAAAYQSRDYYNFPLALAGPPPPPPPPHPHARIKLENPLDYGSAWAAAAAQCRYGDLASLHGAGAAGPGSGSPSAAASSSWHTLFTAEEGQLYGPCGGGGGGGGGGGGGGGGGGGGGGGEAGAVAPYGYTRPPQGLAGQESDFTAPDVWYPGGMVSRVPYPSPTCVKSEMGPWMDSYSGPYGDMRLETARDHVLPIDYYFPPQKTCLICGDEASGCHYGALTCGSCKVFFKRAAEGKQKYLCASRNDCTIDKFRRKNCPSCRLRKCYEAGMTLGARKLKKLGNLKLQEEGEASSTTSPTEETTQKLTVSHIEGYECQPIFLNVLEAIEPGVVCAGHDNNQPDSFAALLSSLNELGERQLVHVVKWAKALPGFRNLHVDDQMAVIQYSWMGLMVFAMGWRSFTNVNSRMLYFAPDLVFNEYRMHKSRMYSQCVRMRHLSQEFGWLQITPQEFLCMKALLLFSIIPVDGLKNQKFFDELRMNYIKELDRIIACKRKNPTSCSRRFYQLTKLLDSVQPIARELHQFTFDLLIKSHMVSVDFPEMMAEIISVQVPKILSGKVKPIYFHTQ
Sequence of UniProt P17787 (whole entry, looked up): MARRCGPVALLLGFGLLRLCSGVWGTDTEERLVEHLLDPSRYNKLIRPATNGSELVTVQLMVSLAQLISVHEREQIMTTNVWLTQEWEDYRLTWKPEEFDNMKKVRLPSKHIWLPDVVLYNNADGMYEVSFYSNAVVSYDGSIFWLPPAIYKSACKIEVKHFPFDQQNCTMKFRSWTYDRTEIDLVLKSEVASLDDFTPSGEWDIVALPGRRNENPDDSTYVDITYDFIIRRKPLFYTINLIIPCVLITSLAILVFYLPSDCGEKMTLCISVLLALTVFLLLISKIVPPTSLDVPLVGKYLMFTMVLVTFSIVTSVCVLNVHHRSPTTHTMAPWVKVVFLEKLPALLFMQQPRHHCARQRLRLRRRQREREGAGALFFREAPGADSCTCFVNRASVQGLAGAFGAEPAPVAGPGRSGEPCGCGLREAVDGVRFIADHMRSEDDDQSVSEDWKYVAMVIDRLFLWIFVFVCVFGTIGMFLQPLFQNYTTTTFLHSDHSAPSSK
Sequence of UniProt P00352 (whole entry, looked up): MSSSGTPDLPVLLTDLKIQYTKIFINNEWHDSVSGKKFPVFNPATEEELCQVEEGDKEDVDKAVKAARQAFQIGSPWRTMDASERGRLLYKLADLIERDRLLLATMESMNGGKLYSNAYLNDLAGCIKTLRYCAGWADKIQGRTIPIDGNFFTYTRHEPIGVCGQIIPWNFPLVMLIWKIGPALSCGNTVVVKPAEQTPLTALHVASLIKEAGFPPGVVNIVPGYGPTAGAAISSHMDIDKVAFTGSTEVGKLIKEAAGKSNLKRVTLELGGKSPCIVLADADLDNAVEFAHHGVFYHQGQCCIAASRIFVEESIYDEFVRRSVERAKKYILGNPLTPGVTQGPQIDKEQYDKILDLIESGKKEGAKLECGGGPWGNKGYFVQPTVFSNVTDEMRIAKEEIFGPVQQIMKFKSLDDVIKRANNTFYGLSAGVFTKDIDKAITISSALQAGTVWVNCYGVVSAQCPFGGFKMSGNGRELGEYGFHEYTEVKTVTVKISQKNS
Sequence of UniProt P43681 (whole entry, looked up): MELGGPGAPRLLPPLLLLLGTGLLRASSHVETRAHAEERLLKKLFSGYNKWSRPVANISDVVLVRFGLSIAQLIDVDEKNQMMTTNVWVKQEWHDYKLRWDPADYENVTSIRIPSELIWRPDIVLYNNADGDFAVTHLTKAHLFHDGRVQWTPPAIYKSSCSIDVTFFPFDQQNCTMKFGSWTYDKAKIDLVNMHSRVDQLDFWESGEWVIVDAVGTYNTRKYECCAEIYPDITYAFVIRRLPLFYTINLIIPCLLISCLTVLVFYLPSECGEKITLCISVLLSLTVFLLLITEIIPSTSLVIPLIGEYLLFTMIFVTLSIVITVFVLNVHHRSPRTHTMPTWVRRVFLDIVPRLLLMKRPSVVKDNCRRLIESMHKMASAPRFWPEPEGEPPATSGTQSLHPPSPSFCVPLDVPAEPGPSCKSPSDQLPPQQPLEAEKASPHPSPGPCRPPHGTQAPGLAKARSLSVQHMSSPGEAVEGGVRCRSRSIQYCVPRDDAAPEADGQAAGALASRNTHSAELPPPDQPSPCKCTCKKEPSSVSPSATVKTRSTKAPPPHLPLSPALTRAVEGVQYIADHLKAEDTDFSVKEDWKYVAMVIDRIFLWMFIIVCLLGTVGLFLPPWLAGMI
Sequence of UniProt A4X744 (whole entry, looked up): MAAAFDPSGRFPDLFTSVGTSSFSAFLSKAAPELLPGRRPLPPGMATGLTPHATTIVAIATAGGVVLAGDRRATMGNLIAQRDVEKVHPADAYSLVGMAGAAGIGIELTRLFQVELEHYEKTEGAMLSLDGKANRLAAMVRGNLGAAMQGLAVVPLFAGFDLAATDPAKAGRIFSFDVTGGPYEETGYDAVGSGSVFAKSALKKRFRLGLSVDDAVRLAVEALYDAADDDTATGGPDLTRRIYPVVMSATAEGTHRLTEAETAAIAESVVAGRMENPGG
Sequence of UniProt P22789 (whole entry, looked up): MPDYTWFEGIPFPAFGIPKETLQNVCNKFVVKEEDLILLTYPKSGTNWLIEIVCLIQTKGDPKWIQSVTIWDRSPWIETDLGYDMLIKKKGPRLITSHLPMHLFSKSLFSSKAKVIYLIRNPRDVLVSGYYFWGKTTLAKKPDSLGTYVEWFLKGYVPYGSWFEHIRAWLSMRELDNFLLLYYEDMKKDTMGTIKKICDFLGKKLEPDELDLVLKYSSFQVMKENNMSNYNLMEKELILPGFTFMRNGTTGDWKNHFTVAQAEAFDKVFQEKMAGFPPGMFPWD

SMILES	target	test	system	conditions	IC50
N#CC(=C(/N)Sc1ccccc1N)/C(C#N)=C(\N)Sc1ccccc1N	ERRα (human)	reporter gene, antagonist, luciferase reporter qHTS			11200 nM
N#CCCc1ccc2c(c1)-c1[nH]c3ccc([N+](=O)[O-])cc3c1CC(=O)N2	Putative glycogen synthase kinase (Leishmania major, UniProt Q4QE15)	enzyme activity, inhibitor		90 min, 30 °C, together with: ATP 2 µM	1000 nM
O=C(NCCCCCn1ccc2ccc(F)cc21)Oc1cccnc1	Cholinesterase (BCHE, Equus caballus, UniProt P81908)	enzyme activity, inhibitor, HPLC			270 nM
CN1CC[C@@]2(C)c3cc(OC(=O)Nc4ccccc4)ccc3N(C)[C@@H]12	Cholinesterase (BCHE, Homo sapiens, UniProt P06276)	enzyme activity, inhibitor, immobilized enzyme reactor, HPLC-UV	immobilized recombinant human enzyme	inhibition plateau, L-tartrate salt	4610 ± 140 nM
CC1=C(O)C(=O)C=C2C1=CC=C1[C@@]2(C)CC[C@@]2(C)[C@@H]3C[C@](C)(C(=O)O)CC[C@]3(C)CC[C@]12C	Androgen receptor (AR, Homo sapiens, UniProt P10275)	ligand displacement in cells, radioligand			58 nM
COCCCNc1c2c3c(cccc3[nH]c1=O)C(=O)c1ccccc1-2	ROP18 (Toxoplasma gondii, UniProt Q2PAY2)	kinase activity, inhibitor		together with: peptide FL-E	> 10000 nM
Oc1ccc(-c2ccc(Cl)cc2)cc1	Sulfotransferase 2A6 (Sult2a6, Rattus norvegicus, UniProt P22789)	enzyme activity, inhibitor		6 min, 37 °C, together with: DHEA 10 µM	160000 nM
CC[C@H]1C(=O)N[C@@]2([C@@H](O)[C@@H]3C=CCCC3)C(=O)O[C@@]12C	Proteasome subunit beta 2, alpha/beta1 complex (prcB2, Salinispora tropica, UniProt A4X744)				19200 ± 3500 nM
COc1ccc(NC(=O)N2CCCCN3[C@H](CN(C)C)[C@H](c4ccc(C#Cc5ccccc5)cc4)[C@@H]3C2)cc1	Phenylalanine--tRNA ligase alpha subunit (Plasmodium falciparum, UniProt Q8I246)	aminoacylation activity, inhibitor			23 nM
Fc1cccc(-n2cnc3c(NCc4nc5c(F)c(F)ccc5[nH]4)nc(N4CCOCC4)nc32)c1	Cyclin-dependent kinase 6, with cyclin D3 (CDK6, Homo sapiens, UniProt Q00534)	enzyme activity, inhibitor			427 nM
CCN1C(=Cc2ccc3ccccc3[n+]2CC)C=Cc2ccccc21	Equilibrative nucleoside transporter 4 (SLC29A4, Homo sapiens, UniProt Q7RTT9)	[3H]MPP+ uptake, inhibitor	HEK293 stably expressing SLC29A4	10 min, room temperature, together with: 10 nM [3H]MPP+	~1000 nM
O=C(OC(C(F)(F)F)C(F)(F)F)N1CCN(Cc2cccc(Oc3ccccc3)c2)CC1	Monoacylglycerol lipase ABHD6 (Abhd6, Rattus norvegicus, UniProt Q5XI64)	competitive ABPP	rat brain membrane proteome		50 nM
CN1C(=O)[C@]23SS[C@@]1(C)C(=O)N2[C@H]1Nc2ccccc2[C@@]1([C@@]12c4ccccc4N[C@@H]1N1C(=O)[C@@]4(C)SS[C@]1(C(=O)N4C)[C@H]2O)[C@@H]3O	Protein arginine N-methyltransferase 6 (PRMT6, Homo sapiens, UniProt Q96LA8)	methyltransferase activity, inhibitor		together with: 1 µM [3H]SAM	> 10000 nM
O=[N+]([O-])c1cc2nc(O)c(O)nc2cc1[N+](=O)[O-]	Lysosomal acid glucosylceramidase (GBA1, Homo sapiens, UniProt P04062, R534H)	enzyme activity, inhibitor		pH 5.9, 1.9 nM enzyme, together with: 30 µM resorufin β-glucoside	4770 nM
Fc1c(F)c(F)c(F)c(F)c1F	Neuronal acetylcholine receptor; alpha4/beta2 (Homo sapiens, UniProt P17787+P43681)	ion current, inhibitor, two-electrode voltage clamp	Xenopus oocytes	together with: ACh 1 mM	0.045 atm
Cn1c(=O)c2c(nc(CN3CCC(C(N)=O)CC3)n2CCCc2ccccc2)n(C)c1=O	Aldehyde dehydrogenase 1A1 (ALDH1A1, Homo sapiens, UniProt P00352)	enzyme activity, inhibitor, absorbance		pH 7.5	2000 nM

A few entries again:
SMILES	target	test	system	conditions	IC50
O=[N+]([O-])c1cc2nc(O)c(O)nc2cc1[N+](=O)[O-]	Lysosomal acid glucosylceramidase (GBA1, Homo sapiens, UniProt P04062, R534H)	enzyme activity, inhibitor		pH 5.9, 1.9 nM enzyme, together with: 30 µM resorufin β-glucoside	4770 nM
Fc1c(F)c(F)c(F)c(F)c1F	Neuronal acetylcholine receptor; alpha4/beta2 (Homo sapiens, UniProt P17787+P43681)	ion current, inhibitor, two-electrode voltage clamp	Xenopus oocytes	together with: ACh 1 mM	0.045 atm
